Results pooled from the literature.
Protocols differ between the studies behind these lines. ± marks the error that the study gave.
rep nsp14 N7-methyltransferase: Replicase polyprotein 1ab, nsp14 N7-methyltransferase (rep, Severe acute respiratory syndrome coronavirus 2, UniProt P0DTD1)
rep main protease: Replicase polyprotein 1ab, main protease (rep, Severe acute respiratory syndrome coronavirus 2, UniProt P0DTD1)

Structure (SMILES) = CC[C@H](C)[C@H](NC(=O)[C@H](CC(C)C)NC(=O)[C@H](Cc1c[nH]c2ccccc12)NC(=O)[C@H](CCC(N)=O)NC(=O)[C@@H](NC(=O)[C@H](Cc1ccccc1)NC(=O)[C@H](C)NC(=O)[C@H](CCCCNC(=O)COCCOCCNC(=O)COCCOCCNC(=O)CC[C@H](NC(=O)CCCCCCCCCCCCCCCCCCC(=O)O)C(=O)O)NC(=O)[C@H](CCC(N)=O)NC(=O)[C@H](C)NC(=O)[C@@H](NC(=O)[C@H](CCCCN)NC(=O)[C@H](CC(=O)O)NC(=O)[C@H](CC(C)C)NC(=O)C(C)(C)NC(=O)[C@@H](NC(=O)[C@H](CO)NC(=O)[C@H](Cc1ccc(O)cc1)NC(=O)[C@H](CC(=O)O)NC(=O)[C@H](CO)NC(=O)[C@@H](NC(=O)[C@H](Cc1ccccc1)NC(=O)[C@@H](NC(=O)CNC(=O)[C@H](CCC(=O)O)NC(=O)C(C)(C)NC(=O)[C@@H](N)Cc1ccc(O)cc1)[C@@H](C)O)[C@@H](C)O)[C@@H](C)CC)[C@@H](C)CC)C(C)C)C(=O)N[C@@H](C)C(=O)NCC(=O)NCC(=O)N1CCC[C@H]1C(=O)N[C@@H](CO)C(=O)N[C@@H](CO)C(=O)NCC(=O)N[C@@H](C)C(=O)N1CCC[C@H]1C(=O)N1CCC[C@H]1C(=O)N1CCC[C@H]1C(=O)N[C@@H](CO)C(N)=O; test system = human, plasma; setting = subcutaneous, 1 mg, single dose, healthy volunteers; endpoint = half-life; result = 106 h
Structure (SMILES) = Oc1c(Cl)cc(Cl)c(Cl)c1Cc1c(O)c(Cl)cc(Cl)c1Cl; tested on = rep nsp14 N7-methyltransferase; assay = N7-methyltransferase activity, inhibitor, Py-FLINT; endpoint = Hill slope; result = 1.82 ± 0.1
Structure (SMILES) = Cc1cc(N[C@H]2C[C@H]3CC[C@@H]2N(C(=O)c2cnc4[nH]ccc4c2)C3)nc(-c2cccnc2)n1; tested on = rep main protease; assay = enzyme activity, inhibitor; setting = 5 µM, run 1; endpoint = inhibition; result = 12.9%
Structure (SMILES) = CC(=O)[C@]1(O)Cc2c(O)c3c(c(O)c2[C@@H](O[C@H]2C[C@H](N)[C@H](O)[C@H](C)O2)C1)C(=O)c1ccccc1C3=O; tested on = rep nsp14 N7-methyltransferase; assay = N7-methyltransferase activity, inhibitor, Py-FLINT; endpoint = Hill slope; result = 1.59 ± 0.11
Structure (SMILES) = CC(C)c1cccc(C(C)C)c1N1C(=O)c2ccc(N)cc2C1=O; tested on = rep main protease; assay = viral replication, mKate2 reporter; test system = SARS-CoV-2; setting = 20 µM; endpoint = inhibition; result = 0.541%
Structure (SMILES) = COC(=O)c1c(NC(=O)c2cc3ccccc3o2)sc(C)c1C; tested on = rep nsp14 N7-methyltransferase; assay = N7-methyltransferase activity, inhibitor, Py-FLINT; endpoint = Hill slope; result = 1.49 ± 0.19
Structure (SMILES) = O=C(NC[C@H]1CN(c2ccc(N3CCOCC3=O)cc2)C(=O)O1)c1ccc(Cl)s1; tested on = rep main protease; assay = reporter gene (Gaussia luciferase), inhibitor; setting = 20 µM; endpoint = inhibition; result = -0.00463%
Structure (SMILES) = Cc1nc(C(=O)N2CC[C@@H]([C@@H]3CCCN3C(=O)c3cc(O)c4ccoc4c3)C2)cc(=O)[nH]1; tested on = rep main protease; assay = Mpro enzyme activity, inhibitor; setting = 5 µM, high-throughput screen, mean of runs; endpoint = inhibition; result = 12%
Structure (SMILES) = O.c1cnc2c(c1)ccc1cccnc12; tested on = rep main protease; assay = reporter gene (Gaussia luciferase), inhibitor; setting = 20 µM; endpoint = inhibition; result = -3.8%
Structure (SMILES) = Cc1cnc(F)c(C(=O)NC[C@@H]2c3ccccc3CCN2C(=O)c2cccc3[nH]ccc23)c1; tested on = rep main protease; assay = enzyme activity, inhibitor; setting = 5 µM, mean of runs; endpoint = inhibition; result = 10%
Structure (SMILES) = CCC1CC(c2ccc(C(=O)O)cc2)=NN1c1ccc(C#N)c(Cl)c1.N (centres unmarked); tested on = Replicase polyprotein 1ab, nsp14 methyltransferase (rep, Severe acute respiratory syndrome coronavirus 2, UniProt P0DTD1); endpoint = lipophilic ligand efficiency; result = 2.6
Structure (SMILES) = CC1(C)C=Cc2cc3ccc(=O)oc3cc2O1; tested on = rep main protease; assay = reporter gene (Gaussia luciferase), inhibitor; setting = 20 µM; endpoint = inhibition; result = 1.92%
Structure (SMILES) = Cc1nn(C)c2ncc(C(=O)N3CC4(CCOCC4)C[C@H]3CNC(=O)c3cccnc3)cc12; tested on = rep main protease; assay = enzyme activity, inhibitor; setting = 5 µM, run 2; endpoint = inhibition; result = 13.1%
Structure (SMILES) = O=C(O)CC[C@H]1CC[C@@](c2cc(F)ccc2F)(S(=O)(=O)c2ccc(Cl)cc2)CC1; tested on = rep main protease; assay = reporter gene (mKate2), inhibitor; setting = 20 µM; endpoint = inhibition; result = -0.624%
Structure (SMILES) = O=C1NCc2ccc(C(=O)N3CCC[C@@H]([C@H]4CCN(C(=O)c5cn[nH]c(=O)c5)C4)C3)cc2N1; tested on = rep main protease; assay = enzyme activity, inhibitor; setting = 5 µM, mean of runs; endpoint = inhibition; result = 11.5%
Structure (SMILES) = CCC(C(=O)Nc1cc(NC2CNC2)ccc1C)n1cc(Cl)cc2nc(SCc3ccc(F)cc3)nc1-2 (centres unmarked); tested on = Replicase polyprotein 1ab, papain-like protease (rep, Severe acute respiratory syndrome coronavirus 2, UniProt P0DTD1); assay = binding; endpoint = koff; result = 0.037 ± 0.003 s⁻¹
Structure (SMILES) = O=C(O)c1ccccc1-c1c2cc(Br)c(=O)cc-2oc2[c]([Hg+])c(O)c(Br)cc12; tested on = rep main protease; assay = inhibitor; setting = 0, 5 or 10 µM; endpoint = apparent kcat; result = 0.0105 ± 0.0035 s⁻¹

Some of these lines once more:
Structure (SMILES) = CCC(C(=O)Nc1cc(NC2CNC2)ccc1C)n1cc(Cl)cc2nc(SCc3ccc(F)cc3)nc1-2 (centres unmarked); tested on = Replicase polyprotein 1ab, papain-like protease (rep, Severe acute respiratory syndrome coronavirus 2, UniProt P0DTD1); assay = binding; endpoint = koff; result = 0.037 ± 0.003 s⁻¹
Structure (SMILES) = CC1(C)C=Cc2cc3ccc(=O)oc3cc2O1; tested on = rep main protease; assay = reporter gene (Gaussia luciferase), inhibitor; setting = 20 µM; endpoint = inhibition; result = 1.92%
